Measurements from different studies.
Every numbered part comes from another study and shows a few of its results, in no order.
UniProt P41595, sequence (whole entry, looked up): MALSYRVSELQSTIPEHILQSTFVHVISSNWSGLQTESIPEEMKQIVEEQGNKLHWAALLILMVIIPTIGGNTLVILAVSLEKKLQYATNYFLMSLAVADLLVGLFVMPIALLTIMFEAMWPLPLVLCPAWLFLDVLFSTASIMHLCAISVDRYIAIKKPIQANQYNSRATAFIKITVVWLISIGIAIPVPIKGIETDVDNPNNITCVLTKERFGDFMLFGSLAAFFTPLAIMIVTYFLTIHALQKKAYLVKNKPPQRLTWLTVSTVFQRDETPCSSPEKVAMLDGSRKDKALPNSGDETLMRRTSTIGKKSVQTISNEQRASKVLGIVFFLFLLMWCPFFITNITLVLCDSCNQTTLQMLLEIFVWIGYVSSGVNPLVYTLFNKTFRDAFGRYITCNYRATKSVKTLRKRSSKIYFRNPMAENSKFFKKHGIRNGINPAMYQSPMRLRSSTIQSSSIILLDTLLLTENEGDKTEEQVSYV

Study 1
Cell line: HaCaT
Concentration: 100 µM
Time: 36 h
CN(C)CCOC(c1ccc(Cl)cc1)c1ccccn1 (centres unmarked) has a viability of 93.1%.
O=C(OC[C@H]1O[C@@H](OC(=O)c2cc(O)c(O)c(OC(=O)c3cc(O)c(O)c(O)c3)c2)[C@H](OC(=O)c2cc(O)c(O)c(OC(=O)c3cc(O)c(O)c(O)c3)c2)[C@@H](OC(=O)c2cc(O)c(O)c(OC(=O)c3cc(O)c(O)c(O)c3)c2)[C@@H]1OC(=O)c1cc(O)c(O)c(OC(=O)c2cc(O)c(O)c(O)c2)c1)c1cc(O)c(O)c(OC(=O)c2cc(O)c(O)c(O)c2)c1 gave a viability of 26.8%.
For COc1cc2c(cc1Cc1cccc(Cl)c1F)c(=O)c(C(=O)O)cn2[C@H](CO)C(C)C, the viability was 61.6%.
CCCCCCCCN[C@@H](C)[C@H](O)c1ccc(SC(C)C)cc1 (racemic) has a viability of 6.1%.

Other studies, line by line
Nfkb1 Rel homology region: Nuclear factor NF-kappa-B p105 subunit, Rel homology region (Nfkb1, Mus musculus, UniProt P25799, residues 1-429)
UniProt P25799, sequence (1-429, looked up): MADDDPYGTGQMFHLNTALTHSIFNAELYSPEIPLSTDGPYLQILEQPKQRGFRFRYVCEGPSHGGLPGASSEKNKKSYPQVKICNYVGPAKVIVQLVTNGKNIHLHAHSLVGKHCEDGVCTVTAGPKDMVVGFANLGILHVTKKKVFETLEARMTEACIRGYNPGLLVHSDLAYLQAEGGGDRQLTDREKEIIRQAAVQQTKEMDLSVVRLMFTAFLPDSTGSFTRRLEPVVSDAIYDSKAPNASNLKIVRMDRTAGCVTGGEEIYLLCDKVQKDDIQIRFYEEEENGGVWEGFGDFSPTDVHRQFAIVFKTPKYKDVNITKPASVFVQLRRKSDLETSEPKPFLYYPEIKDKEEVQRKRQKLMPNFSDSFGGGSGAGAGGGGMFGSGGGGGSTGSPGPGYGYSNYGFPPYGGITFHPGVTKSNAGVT
The dissociation half-life of `AGGAATTCCA` is reported as 0.15 min (Nfkb1 Rel homology region; surface plasmon resonance; double-stranded DNA, one strand shown, in vitro; 1 nM to 1 µM, 10-bp κB site, 1:1 kinetic fit, 10 °C; higher = slower dissociation).
CCC(CC)C(=O)N(C)c1ccc(-c2ccccc2)nn1 gave a remaining compound of > 100% (human, microsomes or S9; 2 µM, 0.5 h).
The dissociation half-life of `GGAAATTCCC` is reported as 2 min (Nfkb1 Rel homology region; surface plasmon resonance; double-stranded DNA, one strand shown, in vitro; 1 nM to 1 µM, 10-bp κB site, 1:1 kinetic fit, 10 °C; higher = slower dissociation).
With O=C1CCc2cc(Nc3cc(OC4CCOCC4)c([N+](=O)[O-])cc3Cl)ccc2N1 the inhibition was 3.31% (5-hydroxytryptamine receptor 2B (HTR2B, Homo sapiens, UniProt P41595); binding, radioligand binding; 10 µM).

For quick reference, copied from above (study 1):
O=C(OC[C@H]1O[C@@H](OC(=O)c2cc(O)c(O)c(OC(=O)c3cc(O)c(O)c(O)c3)c2)[C@H](OC(=O)c2cc(O)c(O)c(OC(=O)c3cc(O)c(O)c(O)c3)c2)[C@@H](OC(=O)c2cc(O)c(O)c(OC(=O)c3cc(O)c(O)c(O)c3)c2)[C@@H]1OC(=O)c1cc(O)c(O)c(OC(=O)c2cc(O)c(O)c(O)c2)c1)c1cc(O)c(O)c(OC(=O)c2cc(O)c(O)c(O)c2)c1 gave a viability of 26.8%.
